# Published values gathered from unrelated publications.
# Parts stem from different laboratories: compare values within a part only.

# Study 1
# Target: TAR DNA-binding protein 43, full length, His tag (TARDBP, Homo sapiens, UniProt Q13148, residues 1-414)
# Method: RNA Bind-n-Seq
# Molecule type: RNA
# Matrix: in vitro
# Concentration: 20 nM
# Setting: 6-mer, flanks averaged, single round
# Added: 150 mM LiCl
# Relative to: input library
# Reading: higher = stronger binding
Sequence,6-mer enrichment (R)
ACCAAC,0.85
GUACAC,0.893
AGACGA,0.831
CACGCG,0.889
ACGUCA,0.84
CGAUAC,0.808
GCCAGC,0.982
UCAUCU,0.84
AAGGCA,0.851
ACGAGG,0.942
CCAUCA,0.879
GCCGGC,0.992
GGGGGU,1.52
GGGUAG,1.23
GCGUUC,0.917
GAAGUG,1.21
GGGCGC,1.13
CGGCAC,0.918
CAUCCC,0.981

# Study 2
# Target: Histone acetyltransferase KAT6A, both winged helices, GST fusion (KAT6A, Homo sapiens, UniProt Q92794, residues 1-181)
# Method: protein binding microarray
# Molecule type: double-stranded DNA, one strand shown
# Matrix: in vitro
# Concentration: not given
# Setting: 8-mer, flanks averaged, mean of 2 arrays, mostly near background
# Relative to: not given
# Reading: higher = stronger binding
# Target sequence (chain): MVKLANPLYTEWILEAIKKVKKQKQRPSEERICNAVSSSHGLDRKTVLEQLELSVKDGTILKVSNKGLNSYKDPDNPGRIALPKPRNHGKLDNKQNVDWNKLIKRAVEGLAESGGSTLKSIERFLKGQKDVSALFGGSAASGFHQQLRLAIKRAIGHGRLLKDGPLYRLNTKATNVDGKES
Sequence,E-score
CAGACACA,-0.107
CCGAAACA,0.0962
AAAGAGGG,-0.178
CCAAAGAC,-0.0725
GGTCTGTA,-0.037
ATCCCGCG,0.35
ACCCTGAG,-0.0287
ACCGGGTA,0.165
ATTTGCTG,-0.0378
AACTCTAA,-0.117
CTGGTTGA,-0.227
GACAGTTA,-0.0131
AACTAAAT,-0.193
AAGTAGCG,0.0887
ATTGGATA,-0.0474
AGGGTCAG,-0.19
GCGGGTTA,0.24
AGGTGAGA,-0.0574
GTGTACGA,0.199

# Study 3
# Target: Sal-like protein 4, full length isoform B (SALL4, Homo sapiens, UniProt Q9UJQ4-2, residues 1-616)
# Method: universal PBM
# Molecule type: double-stranded DNA, one strand shown
# Matrix: in vitro
# Concentration: not given
# Setting: 8-mer, flanks averaged, mean of replicates
# Reading: higher = stronger binding
Sequence,E-score
AGGAGTAG,-0.00912
CTCCCTTC,-0.335
AAAGGGGA,-0.186
AAACAGTC,-0.0392
GCTTAGCA,-0.127
CAGCTGAG,-0.185
CTTCCTGA,0.0282
CGGAGTGA,-0.162
GCCAGAAA,-0.0653
ATTTAGTG,0.188
AGCCTACA,0.0418
AACGAAAA,0.272
AATCCCTA,0.013
ACCATAGC,-0.0862
GGATGTAC,0.0671
AAGGTCGC,-0.122
CGATCTCA,-0.0796
TCGCAGCA,-0.0492

# Study 4
# Target: Ras GTPase-activating protein-binding protein 1, RRM domain (G3BP1, Homo sapiens, UniProt Q13283)
# UniProt Q13283, sequence (whole entry, looked up): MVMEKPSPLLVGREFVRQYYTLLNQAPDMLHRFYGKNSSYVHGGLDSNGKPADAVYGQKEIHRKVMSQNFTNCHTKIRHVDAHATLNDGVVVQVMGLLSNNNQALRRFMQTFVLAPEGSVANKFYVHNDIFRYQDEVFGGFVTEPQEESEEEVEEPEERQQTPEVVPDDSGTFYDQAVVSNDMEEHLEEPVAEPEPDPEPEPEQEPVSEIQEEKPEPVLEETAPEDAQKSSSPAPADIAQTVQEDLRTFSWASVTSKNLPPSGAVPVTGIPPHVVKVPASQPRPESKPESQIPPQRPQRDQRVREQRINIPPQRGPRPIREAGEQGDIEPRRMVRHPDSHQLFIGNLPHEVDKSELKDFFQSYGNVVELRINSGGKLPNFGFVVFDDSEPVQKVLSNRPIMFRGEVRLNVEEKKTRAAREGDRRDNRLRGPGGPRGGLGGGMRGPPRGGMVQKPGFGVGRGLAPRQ
# Method: RNA Bind-n-Seq
# Molecule type: RNA
# Matrix: in vitro
# Concentration: 1 µM
# Setting: whole 134-nt RNA, ends assumed
# Added: 150 mM KCl
# Relative to: input library
# Reading: higher = stronger binding
Sequence,log2 enrichment
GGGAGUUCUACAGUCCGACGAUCUGGGAGGUGGAUUUUGUAUAUUUUUUUAGCUCAUUUCCAGGGGUGGGAAUUUUUUUUUAAUAUGUGUCAUGAAUAAAGUUGUUUUUGAAAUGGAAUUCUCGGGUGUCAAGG,2.03
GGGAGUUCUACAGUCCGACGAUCCAAGUCCUGUGCUACACAUCGUAUGUACCGAAUCGGAAAGGGGAAAGGGAAAGGGGAAAGUAUUAUGUUACGCCGUUCGGAUCUGCACUUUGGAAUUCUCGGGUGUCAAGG,0.115
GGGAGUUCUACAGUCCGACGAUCUCCUGUGCUACACAUCGUAUGUACCGAAUCGGGUUUUUUUGGUUUUUUUGGUUUUUUUGGAAAGUAUUAUGUUACGCCGUUCGGAUCUGCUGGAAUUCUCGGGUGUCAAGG,-0.0781
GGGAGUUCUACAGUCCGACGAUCUCCUCAAGUCCUGUGCUACACAUCGUAUGUACCGAAUCGGUUUGGAGGUGGAAAGUAUUAUGUUACGCCGUUCGGAUCUGCACUUCCAGCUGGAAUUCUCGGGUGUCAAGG,-0.146
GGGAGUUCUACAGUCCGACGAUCGUCCUGUGCUACACAUCGUAUGUACCGAAUCGGUUUUUGGGUUUUUGGGUUUUUGGGGAAAGUAUUAUGUUACGCCGUUCGGAUCUGCACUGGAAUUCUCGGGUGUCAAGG,-0.138
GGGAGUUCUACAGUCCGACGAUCUCCUCAAGUCCUGUGCUACACAUCGUAUGUACCGAAUCGGGGUGGUGGUGGGAAAGUAUUAUGUUACGCCGUUCGGAUCUGCACUUCCAGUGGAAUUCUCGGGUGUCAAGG,-0.0525
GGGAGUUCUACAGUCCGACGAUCAAGUCCUGUGCUACACAUCGUAUGUACCGAAUCGGGGCCCCGGGCCCCGGCCCCGGGAAAGUAUUAUGUUACGCCGUUCGGAUCUGCACUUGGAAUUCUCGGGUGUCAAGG,-0.562
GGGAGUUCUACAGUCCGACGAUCUCCUGUGCUACACAUCGUAUGUACCGAAUCGGGGAAAAAGGGGUUUUUGGGGAAAGGGGAAAGUAUUAUGUUACGCCGUUCGGAUCUGCAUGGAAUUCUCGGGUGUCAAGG,0.933
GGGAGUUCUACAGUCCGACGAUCUCAAGUCCUGUGCUACACAUCGUAUGUACCGAAUCGGGAAAGGAAAGGAAAGGGGAAAGUAUUAUGUUACGCCGUUCGGAUCUGCACUUCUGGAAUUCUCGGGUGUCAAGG,-0.263

# Study 5
# Target: RNA binding protein fox-1 homolog 2, RRM domain, GST-SBP tag (RBFOX2, Homo sapiens, UniProt O43251-10, residues 100-194)
# Method: RNA Bind-n-Seq
# Molecule type: RNA
# Matrix: in vitro
# Concentration: 365 nM
# Setting: natural RNA segment, single round, ends assumed
# Relative to: no-protein control
# Reading: higher = stronger binding
# Target sequence (chain): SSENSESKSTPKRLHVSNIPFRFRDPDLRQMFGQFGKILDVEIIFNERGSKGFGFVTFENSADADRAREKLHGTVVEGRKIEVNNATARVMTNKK
Sequence,RBNS enrichment (R)
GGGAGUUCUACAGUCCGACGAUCGAAGCCAUACGUGGUUGUCUGCCUUCCUGAGCAAGGCUUCUCAUCCCAUAUUAAAGGAUCAUCAUCAUGGUUCUGCAGACACUCCGUGGCUCUGGGCGGUUCGUGCCCUUUGGAAUUCUCGGGUGCCAA,0.369
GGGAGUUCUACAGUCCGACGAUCUUUGGAGUAAAACAAACUUCUAGCUUUAGCCAGGUGUGCAUGUUGUCGCCAUUUGCAUUUUGAGUCAUCUUGUGUAAAUGUCACCAUGAAAGUGUUACUCAGAAUUGUCAUGGAAUUCUCGGGUGCCAA,1.66
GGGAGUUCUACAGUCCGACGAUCAGCAAGACUCAAAGAGGCAGAGGUUUUGUUCUCAAAUAUUUUUUAAUAAAUAGACGAAACCACGAAACCACUAGACUGAUGGCAGCAAACUAAGGUCAGAUGAGAGGGGAUGGAAUUCUCGGGUGCCAA,0.371
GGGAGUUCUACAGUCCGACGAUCCUAAUGCUAAUAUUUCCAUCAAAAUUUGCCUGUGGAAUAUAUACAGUUCUUAAUUUUAAACUGUCAGUUCUUGAGAUAUACCGUGUGAAGCUAUUGUCAGCUUCUCUAUUUGGAAUUCUCGGGUGCCAA,0.63
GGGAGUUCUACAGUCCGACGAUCAAUGCCAUUCCCACUUGCCCCAGAGAAGCUACUCGGCCAAACCUAGCCAGGGUCUGUUCUUGUGGACCAGAGCCAGCCUAGUCAUUAUUUGCUGUCGGGUUUCCAGUUUCUGGAAUUCUCGGGUGCCAA,0.193
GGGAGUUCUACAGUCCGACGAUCAAGGAGUCUCAGAGAUCAUCUCCUUUUUUUUCCAUAUCUACAACCUCAUUUUUCCCACAGUGGAGAUUUGGAAGAUGUCCCAAUUUAAUGUAGGUGUUUUCAUCUGUCAUUGGAAUUCUCGGGUGCCAA,0.553
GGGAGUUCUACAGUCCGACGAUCGGGACGCUGGCCGCAGGGAGGAAGGAACAUCUCGGGAGGGCCCUCUGUUCCUCUCCCACGGCAGAUGCCCUCCUCUGUAUGCAAAUCAGCACAGCCUUUAUUGAGCUUUAUGGAAUUCUCGGGUGCCAA,0.57
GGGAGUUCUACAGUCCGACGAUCCUCCCAUGCCAGAACAGAGGAUGGCAGUCUGUUUCAAUAAGACACUGUGUCCUUGGUGUUGGUUCUGAUUAAGACUCACUGAGAUCCAGUGCUCUUGAGCUGGGUCUCAGUGGAAUUCUCGGGUGCCAA,0.204

# Study 6
# Target: Transcription factor SOX-2, HMG box (SOX2, Homo sapiens, UniProt P48431, residues 19-118)
# UniProt P48431, sequence (19-118, looked up): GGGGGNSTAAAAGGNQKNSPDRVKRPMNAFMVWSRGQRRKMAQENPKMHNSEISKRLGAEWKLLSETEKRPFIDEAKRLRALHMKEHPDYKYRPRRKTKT
# Method: protein-binding microarray
# Molecule type: double-stranded DNA, one strand shown
# Matrix: in vitro
# Concentration: not given
# Setting: k-mer, scored over probes, only values ≥0.25
# Reading: higher = stronger binding
Sequence,E-score
ATATACA,0.252
ATTCAAA,0.363
AGACAAA,0.331
CAATGTG,0.264
CAATGTA,0.291
ATTACAA,0.308
AATTCTC,0.26
TCAATGA,0.349
TTCACAA,0.286
ATTGTGA,0.401
ATGAATG,0.462
ACAATTG,0.463
ATCAATA,0.358
TGAATAA,0.387
AATAAAG,0.296
CTATACA,0.261
AATTATC,0.384
ATTCTAA,0.267

# Repeated from above (study 3):
Sequence,E-score
CTCCCTTC,-0.335
AAAGGGGA,-0.186
AAACAGTC,-0.0392
GCTTAGCA,-0.127
CAGCTGAG,-0.185
CTTCCTGA,0.0282
CGGAGTGA,-0.162
